{"data": "Measurements from different studies", "note": "Each numbered part is a random draw from the data of one study; scales do not carry over between parts."}
{"data": "Block 1", "target": "Histone acetyltransferase KAT6A, winged helix 2, GST fusion (KAT6A, Homo sapiens, UniProt Q92794, residues 85-181)", "method": "protein binding microarray", "molecule type": "double-stranded DNA, one strand shown", "sample": "in vitro", "tested at": "not given", "setting": "8-mer, flanks averaged, mean of 2 arrays, mostly near background", "baseline": "not given", "reading": "higher = stronger binding", "Target sequence (chain)": "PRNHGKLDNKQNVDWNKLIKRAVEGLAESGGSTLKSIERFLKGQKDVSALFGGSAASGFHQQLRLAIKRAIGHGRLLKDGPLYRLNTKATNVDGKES"}
{"Sequence": "AATAAGTG", "E-score": -0.127}
{"Sequence": "AGATAGCG", "E-score": 0.0224}
{"Sequence": "GCATTAAA", "E-score": 0.038}
{"Sequence": "CCGACTAC", "E-score": -0.0442}
{"Sequence": "ACCGGCGC", "E-score": 0.0767}
{"Sequence": "ATACACTC", "E-score": -0.0711}
{"Sequence": "TCCGCAAA", "E-score": 0.0801}
{"Sequence": "CGGAGAGC", "E-score": 0.0902}
{"Sequence": "CATCTGCG", "E-score": 0.172}
{"data": "Block 2", "target": "Ras GTPase-activating protein-binding protein 1, full length (G3BP1, Homo sapiens, UniProt Q13283)", "method": "RNA Bind-n-Seq", "molecule type": "RNA", "sample": "in vitro", "tested at": "200 nM", "setting": "whole 134-nt RNA, ends assumed", "added": "150 mM LiCl", "baseline": "input library", "reading": "higher = stronger binding", "library": "7-deaza-guanosine replaces G", "all sequences stand within": "GGGAGUUCUACAGUCCGACGAUC … UGGAAUUCUCGGGUGUCAAGG", "sequence of UniProt Q13283 (whole entry, looked up)": "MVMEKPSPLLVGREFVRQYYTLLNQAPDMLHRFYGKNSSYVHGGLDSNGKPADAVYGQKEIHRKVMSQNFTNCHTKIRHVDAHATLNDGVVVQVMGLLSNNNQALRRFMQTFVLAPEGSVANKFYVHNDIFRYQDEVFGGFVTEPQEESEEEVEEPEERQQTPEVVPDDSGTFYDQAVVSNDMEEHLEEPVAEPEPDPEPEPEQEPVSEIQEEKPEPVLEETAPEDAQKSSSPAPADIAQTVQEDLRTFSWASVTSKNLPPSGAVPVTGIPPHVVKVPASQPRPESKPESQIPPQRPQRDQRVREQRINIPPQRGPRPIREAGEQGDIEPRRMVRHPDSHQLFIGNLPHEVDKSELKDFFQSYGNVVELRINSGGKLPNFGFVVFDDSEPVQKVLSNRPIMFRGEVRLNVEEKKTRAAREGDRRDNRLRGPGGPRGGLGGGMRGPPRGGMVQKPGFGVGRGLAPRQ"}
{"Sequence": "AGUCCUGUGCUACACAUCGUAUGUACCGAAUCGGGAAAAAAAGGGAAAAAGGGUGGGAAAGUAUUAUGUUACGCCGUUCGGAUCUGCACU", "log2 enrichment": -0.981}
{"Sequence": "UCAAGUCCUGUGCUACACAUCGUAUGUACCGAAUCGGUUUGGAAAAAGGUUUGGAAAGUAUUAUGUUACGCCGUUCGGAUCUGCACUUCC", "log2 enrichment": -1.32}
{"Sequence": "UGGAGAUGACAGAAAUGACUGGUGUGUCGCUGAAACGUGGGGCACUGGUUGUCGAAGAUAAUGACAGUGGAGUCCCAGUUGAAGAGACAA", "log2 enrichment": -2.86}
{"Sequence": "GGUGCGGCUCUAUGAGUGGACAACAGAGAAGGAGCUGCGCACUGAGUGCAACCACUACAACAACAUCAUGGCCCUCUACCUGAAGACCAA", "log2 enrichment": -0.599}
{"Sequence": "GCAGGAAGUAAAAACAAAUGGAAAUGCUUCGGAUAGUGGCAGGGGUGGGGGUUGCUAAGGAAAGGGUGGGAUGGGAGCGGGUAAAGAGUU", "log2 enrichment": 0.335}
{"Sequence": "UUGAUGUUAGUAAAUUUGGUGUAAUACGUGGGGCUUCCAUAUUUCAAAGUGGAAGCUUUCUUCUCUGAAGUCGAUAUAUGGUUUUGAAUU", "log2 enrichment": -0.521}
{"Sequence": "CAAGUCCUGUGCUACACAUCGUAUGUACCGAAUCGGUGGUUUUUUUGGUUUUUGGAAAGUAUUAUGUUACGCCGUUCGGAUCUGCACUUC", "log2 enrichment": -0.502}
{"Sequence": "CCUCAAGUCCUGUGCUACACAUCGUAUGUACCGAAUCGGCGGCGGGGCGGGGAAAGUAUUAUGUUACGCCGUUCGGAUCUGCACUUCCAG", "log2 enrichment": -0.0802}
{"data": "Block 3", "target": "Sal-like protein 4, full length isoform A (SALL4, Homo sapiens, UniProt Q9UJQ4, residues 1-1053)", "method": "universal PBM", "molecule type": "double-stranded DNA, one strand shown", "sample": "in vitro", "tested at": "600 nM", "setting": "8-mer, flanks averaged, mean of replicates", "reading": "higher = stronger binding", "sequence of UniProt Q9UJQ4 (whole entry, looked up)": "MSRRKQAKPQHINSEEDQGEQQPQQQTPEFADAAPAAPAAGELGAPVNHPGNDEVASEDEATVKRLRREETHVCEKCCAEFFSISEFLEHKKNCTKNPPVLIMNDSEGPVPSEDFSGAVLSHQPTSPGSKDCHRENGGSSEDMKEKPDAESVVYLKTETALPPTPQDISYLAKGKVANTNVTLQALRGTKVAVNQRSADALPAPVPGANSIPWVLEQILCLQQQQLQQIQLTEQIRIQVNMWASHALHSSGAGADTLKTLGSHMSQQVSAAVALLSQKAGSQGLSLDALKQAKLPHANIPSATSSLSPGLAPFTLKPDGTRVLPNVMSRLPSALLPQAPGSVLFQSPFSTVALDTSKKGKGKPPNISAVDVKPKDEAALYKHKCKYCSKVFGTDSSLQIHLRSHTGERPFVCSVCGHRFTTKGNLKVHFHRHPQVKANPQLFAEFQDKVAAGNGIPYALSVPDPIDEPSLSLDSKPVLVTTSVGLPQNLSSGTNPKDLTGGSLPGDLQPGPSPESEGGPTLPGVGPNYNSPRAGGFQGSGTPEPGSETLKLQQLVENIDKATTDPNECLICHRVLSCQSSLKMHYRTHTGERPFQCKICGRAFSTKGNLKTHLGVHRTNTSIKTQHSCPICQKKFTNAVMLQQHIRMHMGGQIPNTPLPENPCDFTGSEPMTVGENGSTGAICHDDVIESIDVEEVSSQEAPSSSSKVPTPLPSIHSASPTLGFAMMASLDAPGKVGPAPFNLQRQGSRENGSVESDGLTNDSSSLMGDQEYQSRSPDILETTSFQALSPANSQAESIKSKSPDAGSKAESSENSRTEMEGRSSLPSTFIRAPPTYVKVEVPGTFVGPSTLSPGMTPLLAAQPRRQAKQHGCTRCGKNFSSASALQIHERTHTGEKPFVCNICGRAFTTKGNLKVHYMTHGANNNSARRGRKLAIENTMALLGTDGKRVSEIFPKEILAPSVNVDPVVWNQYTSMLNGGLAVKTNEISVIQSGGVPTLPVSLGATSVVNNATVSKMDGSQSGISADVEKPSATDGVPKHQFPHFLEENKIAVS"}
{"Sequence": "CAATAAGG", "E-score": 0.0488}
{"Sequence": "GTAAAAGA", "E-score": 0.0799}
{"Sequence": "ATCGGCAA", "E-score": -0.0552}
{"Sequence": "ATACTCCC", "E-score": 0.0258}
{"Sequence": "CTCACCCC", "E-score": -0.173}
{"Sequence": "CCCATGAG", "E-score": -0.138}
{"Sequence": "AAGATGGA", "E-score": 0.024}
{"Sequence": "AGTCGTCA", "E-score": -0.0089}
{"Sequence": "CTTTTTCC", "E-score": 0.096}
{"Sequence": "ATCAGTAA", "E-score": 0.232}
{"Sequence": "AGGTCAAT", "E-score": 0.172}
{"Sequence": "GTTGATCA", "E-score": 0.0285}
{"data": "Other studies, line by line"}
{"Molecule": "PhoQ, residues 284 288 289 292 302 303 NLAAMI", "target": "PhoP, residues 12 14 15 18 19 TPLRH (Escherichia coli, UniProt P23836)", "assay": "Sort-seq, item: YFP reporter", "test system": "E. coli", "conditions": "PhoQ-PhoP variant library, added: 10 µM Mg2+", "how to read": "baseline: high Mg2+ state, higher = stronger signaling", "endpoint": "fold induction", "value": 4.66}
{"note": "A few entries again (block 3):"}
{"Sequence": "CTCACCCC", "E-score": -0.173}
{"Sequence": "ATACTCCC", "E-score": 0.0258}
